Measurements of several laboratories.
Numbered parts are unrelated; each lists some results of a single study.

Block 1
Organism: SARS-CoV-2 Wuhan spike VSV pseudovirus
Observed: pseudovirus entry
Concentration: concentration not given
The inhibition of `COc1ccccc1Nc1c2c(nc3ccc(NC(=O)c4cccnc4)cc13)CCCC2` is reported as 43%.
The inhibition of `Cc1ccc(NC2CCCN(C(=O)c3cc(=O)c4ccccc4o3)C2)cc1C` (stereo not drawn) is reported as 42%.
With `CCn1nc(C)c(CCN(C)S(=O)(=O)c2ccc3c(c2)CC(C)N3C(C)=O)c1C` (stereo not drawn) the inhibition was 42%.
With `CCCCOc1ccc(C(=O)Nc2nc3ccc(S(=O)(=O)N(C)C)cc3s2)cc1` the inhibition was 40%.
`c1nc(Sc2nnc(NCC3CCCO3)s2)c2ccsc2n1` (stereo not drawn) gave an inhibition of 39%.
`CCCCOC(=O)C1=C(N)OC2=C(C(=O)CC(C)(C)C2)C12C(=O)Nc1ccc(Br)cc12` (stereo not drawn) gave an inhibition of 39%.

Other studies, line by line
rep nsp12 RdRp: Replicase polyprotein 1ab, nsp12 RdRp (rep, Severe acute respiratory syndrome coronavirus 2, UniProt P0DTD1)
rep papain-like protease: Replicase polyprotein 1ab, papain-like protease (rep, Severe acute respiratory syndrome coronavirus 2, UniProt P0DTD1)
rep nsp14: Replicase polyprotein 1ab, nsp14 (rep, Severe acute respiratory syndrome coronavirus 2, UniProt P0DTD1)
With `Cc1ccc2c(c1)C1(CCN(CCc3nc(-c4ccccc4)oc3C)CC1)OC(=O)N2` the BLI response was 0.01 nm (rep nsp12 RdRp; binding, biolayer interferometry; concentration not given).
`COC[C@H](NC(=O)c1cnc(C)s1)C(=O)N[C@@H](COC)C(=O)N[C@@H](Cc1ccccc1)C(=O)[C@@]1(C)CO1` has an activity of 29.7% (rep papain-like protease; concentration not given, C111S mutant; reference: positive control).
`O=C(NC1CCN(c2ncnc3[nH]cnc23)CC1)c1cccc(S(=O)(=O)N2CCC2)c1` has an inhibition of 16.6% (rep nsp14; NSP14 enzyme activity, inhibitor; 3.125 µM).
With `COc1cc(C(=O)NS(=O)(=O)c2ccccc2C)ccc1Cc1cn(C)c2ccc(NC(=O)OC3CCCC3)cc12` the BLI response was 0.31 nm (rep nsp12 RdRp; binding, biolayer interferometry; 50 µM).
`CN(Cc1cc(Br)cc(Br)c1N)C1CCCCC1` gave an activity of 27.5% (rep papain-like protease; concentration not given, C111S mutant; reference: positive control).
For `Cc1ccc(NS(=O)(=O)c2cccc(C(=O)NC3CCN(c4ncnc5[nH]cnc45)CC3)c2)cc1`, the inhibition was 26.1% (rep nsp14; 0.7812 µM).

Excerpt of the above (block 1):
With `CCCCOc1ccc(C(=O)Nc2nc3ccc(S(=O)(=O)N(C)C)cc3s2)cc1` the inhibition was 40%.
`c1nc(Sc2nnc(NCC3CCCO3)s2)c2ccsc2n1` (stereo not drawn) gave an inhibition of 39%.
